Published values collected from several papers.
Lines come from different studies, so protocols differ. Values joined by “and” are separate records of one study, mostly repeats; a detail may differ. ± marks the error that the study gave.

CCCCN1C(=O)c2cccc3c(NCCCN4CCOCC4)ccc(c23)C1=O — molar extinction coefficient (EG): 5400 M⁻¹ cm⁻¹
CC[C@H](C)[C@@H]1NC(=O)[C@H](Cc2ccc(O)cc2)NC(=O)CCCSC[C@@H](C(=O)N(CC(=O)N[C@@H](CC(C)C)C(=O)NCC(N)=O)Cc2ccc(F)cc2)NC(=O)[C@H](CC(N)=O)NC(=O)[C@H](CCC(N)=O)NC1=O — AUC(0-t) (healthy human, plasma; intranasal, 400 µg every 3 h, after first dose): 0.114 ng·h/mL
CN([O-])C(=O)CN1CCNCCN(CC(=O)N(C)[O-])CC1.[89Zr+4] — tracer uptake (mouse, kidney; intravenous, 4 h): 1.28 %ID/g
CC[C@H](C)[C@H](NC(=O)[C@H](CCCCN)NC(=O)[C@H](CCC(=O)O)NC(=O)[C@H](CO)NC(=O)[C@H](Cc1ccccc1)NC(=O)[C@H](CC(C)C)NC(=O)[C@H](CCC(N)=O)NC(=O)[C@H](CO)NC(=O)[C@H](C)NC(=O)[C@H](CCCCN)NC(=O)[C@H](Cc1c[nH]cn1)NC(=O)[C@H](Cc1c[nH]c2ccccc12)NC(=O)[C@H](CCC(N)=O)NC(=O)[C@H](CCCCN)NC(=O)[C@H](CCCCN)NC(=O)[C@H](CC(C)C)NC(=O)CNC(=O)[C@H](C)NC(=O)[C@@H](NC(=O)[C@H](CO)NC(=O)[C@@H](N)CCSC)C(C)C)C(=O)N[C@@H](CO)C(=O)NCC(=O)N[C@@H](C)C(N)=O — fractional helicity (circular dichroism; phosphate buffer; pH 7.4): 3.6%
C=C(NC(=O)c1csc(-c2nc3c(cc2O)-c2nc(cs2)C(=O)NC(C(C)O)C(=O)NC(=C(C)OC)c2nc(cs2)C(=O)NC2c4nc(cs4)C(=O)NC(COC(=O)c4c5c6c(cccc6n4O)COC(=O)C(OC4CC(C)(O)C(N(C)C)C(C)O4)C2OC5)c2nc-3cs2)n1)C(N)=O (centres unmarked) — Cmax (Sprague-Dawley rat, male, plasma; intravenous infusion, 6 mg/kg, multiple doses, day 7): 3160 ng/mL
O=C1CCC(N2Cc3cc(C(=O)O)c(F)cc3C2=O)C(=O)N1 (centres unmarked) — plasma concentration (cynomolgus monkey, male; oral, 0.3 mg/kg parent drug, 8 h): 0.63 ± 0.45 ng/mL
O=C([O-])CN1CCN(CC(=O)[O-])CCN(CC(CCCc2ccccc2[N+](=O)[O-])N(CC(=O)[O-])CC(=O)[O-])CC1.[177Lu+3] (centres unmarked) — intact radiolabelled complex (TLC; human serum; 3 h, pH 7, 37 °C): 100%
CC(C)[C@H](NC(=O)[C@H](Cc1c[nH]c2ccccc12)NC(=O)[C@H](CCCNC(=N)N)NC(=O)[C@H](CCCNC(=N)N)NC(=O)[C@@H](NC(=O)[C@@H](NC(=O)[C@H](CCCNC(=N)N)NC(=O)[C@@H](NC(=O)[C@@H](NC(=O)[C@H](CCCNC(=N)N)NC(=O)[C@H](CCCNC(=N)N)NC(=O)[C@@H](NC(=O)[C@H](Cc1c[nH]c2ccccc12)NC(=O)[C@H](CCCNC(=N)N)NC(=O)[C@H](CCCNC(=N)N)NC(=O)[C@@H](NC(=O)[C@H](CCCNC(=N)N)NC(=O)[C@H](CCCNC(=N)N)NC(=O)[C@@H](NC(=O)[C@H](Cc1c[nH]c2ccccc12)NC(=O)[C@H](CCCNC(=N)N)NC(=O)[C@@H](N)CCCNC(=N)N)C(C)C)C(C)C)C(C)C)C(C)C)C(C)C)C(C)C)C(C)C)C(=O)N[C@@H](CCCNC(=N)N)C(=O)N[C@@H](CCCNC(=N)N)C(=O)O — glucose excretion (CD1 mouse, urine; intravenous, 15 mg/kg, 16 h, [14C]-labelled compound): 188 µg/day/g body weight
CC(C)C[C@@H](NC(=O)[C@@H](CC(C)C)NC(=O)[C@@H](CC(=O)O)NC(=O)[C@@H](CC(C)C)NC(=O)[C@@H](CC(C)C)NC(=O)[C@@H](CC(C)C)NC(=O)[C@H](NC(=O)[C@@H](CC(=O)O)NC(=O)[C@H](NC(=O)[C@H]1CCCN1C(=O)[C@@H](Cc1ccccc1)NC(=O)[C@@H](CC(C)C)NC(=O)[C@@H](CC(C)C)NC(=O)[C@@H](CC(=O)O)NC(=O)[C@@H](CC(C)C)NC(=O)[C@@H](Cc1ccc(O)cc1)NC(=O)[C@@H](C)NC(=O)[C@@H](CCCNC(=N)N)NC(=O)[C@@H](Cc1c[nH]c2ccccc12)NC(=O)[C@H]1CCCN1C(=O)[C@@H](CC(N)=O)NC(=O)[C@@H](CCC(N)=O)NC(=O)[C@@H](CC(=O)O)NC(=O)[C@@H](CC(=O)O)NC(=O)[C@@H](CSC1CC(=O)N(CCNC(=O)CN2CCN(CC(=O)O)CCN(CC(=O)O)CC2)C1=O)NC(=O)[C@@H](C)N)[C@H](C)O)[C@H](C)O)C(=O)N[C@H](Cc1c[nH]c2ccccc12)C(=O)O (some centres unmarked) [fluorine-18 labelled] — tissue uptake (male nude mice, PC-3 xenograft, blood; intravenous, 1 h): 16.2 %ID/g
Oc1c(Br)cc(Br)c2nc3cc(F)c(F)cc3nc12 — haemolysis (haemolysis; 200 µM): ≤ 1%
COCC1CN(C2CCN(c3cc(OC)c(Nc4ncc(Br)c(Nc5ccc6c(c5P(C)(C)=O)OCCO6)n4)cc3C)CC2)C1 — Cmin (EGFR-mutant NSCLC patients, plasma; oral, 150 mg multiple doses, geometric mean): 509 ng/mL
COc1ccc2c(c1)CCn1c[n+]3c(c1-2)-c1ccc(OC)cc1CC3 — Lymphocytes (female NSG mice, blood; 6 mg/kg, day 20, 5 days per week): 6.18 ± 7.97%
CCCCN1C(=O)c2cccc3c(NCCCCCN4CCOCC4)ccc(c23)C1=O — molar extinction coefficient (methanol): 5560 M⁻¹ cm⁻¹
Cc1nn(-c2cccc(N)c2)c(=O)c2cnc(Nc3ccc(N4CCNCC4)cc3)nc12 — IC50 (Proto-oncogene tyrosine-protein kinase receptor Ret (RET, Homo sapiens, UniProt P07949, Y791F); kinase activity, inhibitor, SelectScreen kinase profiling): 2.72 µM
C=CC(=O)Nc1cccc(Cn2ncc3cnc(Nc4cnn(CCOC)c4)nc32)c1 — remaining compound (dog, Beagle, both sexes, whole blood; 5 µM, 120 min): 45.3%
COc1cccc(OC)c1-c1cc(C(=O)NC2(C(=O)O)C3CC4CC(C3)CC2C4)nn1-c1ccc(C(=O)N(C)CCCN(C)C(=O)[C@H](CCCCNC(=O)[C@H](CC(C)C)NC(=O)C2OC2C(=O)O)NC(=O)CN2CCN(CC(=O)[O-])CCN(CC(=O)[O-])CCN(CC(=O)[O-])CC2)cc1C(C)C.[177Lu+3] (mixture of isomers) — tumour-to-brain ratio (mouse, HT-29 xenograft; 168 h post injection, biodistribution; baseline: tumour over brain uptake): 45.1
O=C1NC2(CC2)COc2ncc(F)cc2[C@H]2COCCN2c2ccn3ncc1c3n2 — PCE/(PCE+NCE) ratio (bone marrow micronucleus test; NIH mice, female; oral, 20 mg/kg/day, 3 days): 0.495 ± 0.041
C=C[C@]1(C)C[C@@H](OC(=O)CSc2ccc(NC(=O)c3ccco3)cc2)[C@]2(C)[C@H](C)CC[C@]3(CCC(=O)[C@H]32)[C@@H](C)[C@@H]1O — plasma concentration (Mycoplasma gallisepticum-infected chickens, plasma; intramuscular, 5 mg/kg, 3 h): 176 ng/mL and 151 ng/mL and 172 ng/mL and 128 ng/mL and 129 ng/mL and 159 ng/mL and 170 ng/mL and 140 ng/mL
CCCCN1C(=O)c2cccc3c(NCCCCN4CCOCC4)ccc(c23)C1=O — molar extinction coefficient (dioxane): 6400 M⁻¹ cm⁻¹
C=CC(=O)Nc1cc(Nc2nccc(-c3c[nH]c4ccccc34)n2)c(OC)cc1N(C)CCN(C)C — recovery (storage stability; human plasma; 72 h, -80 °C, high QC level): 90.2%
Nc1ncc(-c2cc(-c3cnn(CC(F)(F)F)c3)ncc2F)nc1C(=O)NC1CNCC(F)C1 (centres unmarked) — remaining binding (MAST1; KINOMEscan; 1 µM; baseline: DMSO control): 80%
CN1CCCNC(=O)c2cccc(c2)C(=O)NCCCN(C)CCCNc2cccc3c2C(=O)c2cccc(c2C3=O)NCCC1 — log2 fold change (SAS; RNA-Seq, measured: ATP6V0A1 mRNA; 1 µM, 6 h; baseline: untreated cells): -0.656
CC(=O)N1CCC[C@H]1C(=O)N[C@@H](CC(C)C)C(=O)N[C@@H](Cc1cncn1CCCCCCCCc1ccccc1)C(=O)N[C@@H](CO)C(=O)N[C@H](C(N)=O)[C@@H](C)OP(=O)(O)O — recovery (Caco-2 monolayer; 10 µM, 2 h): 69.4%
CCCC[C@H](OC(C)=O)c1ccccc1C(=O)O — clearance (beagle dogs, both sexes, whole blood; intravenous, 5 mg/kg single dose): 16.8 ± 1.77 mL/min/kg
CCN(CC)c1ccc2c(c1)O[B-]1(c3ccccc3)OC(=O)C(c3ccccc3)=N[N+]1=C2C (centres unmarked) — molar absorption coefficient (toluene): 50000 M⁻¹ cm⁻¹
CCC(C(=O)Nc1ccc(C(N)=O)c(F)c1)n1cc(OC)c(-c2cc(Cl)ccc2-n2cc(C(F)(F)F)nn2)cc1=O (centres unmarked) — mild adverse events (healthy male humans; 50 mg, maximum intensity, together with: omeprazole): 28.6%
COC1CN([C@H]2CC[C@H]([C@@]3(C)Oc4c(Cl)cc(C(=O)NCc5c(SC)cc(C)[nH]c5=O)c(C)c4O3)CC2)C1 — log2 fold change (RNA-seq, measured: HOMER1 mouse homolog; mouse, HT-1376 xenograft, whole blood; dose not given; baseline: vehicle): 0.795
CCCCN1C(=O)c2cccc3c(NCCCCCCN4CCOCC4)ccc(c23)C1=O — molar extinction coefficient (DMSO): 13900 M⁻¹ cm⁻¹
Cc1ccc(OCC(=O)N(Cc2cccs2)c2ccn[nH]2)cc1 — remaining compound (rat plasma; 750 ng/mL, 0.5 h, 37 °C, unit not given; baseline: time zero): 1.3
CN1CC[C@@H](COc2cnc(C#N)cc2-c2ccn3nc(NC(=O)C4CC4)cc3c2)C1 — oral bioavailability (rat, Sprague-Dawley, male, plasma; oral, 5 mg/kg): 18%
Cc1cccc2c1N(C(=O)n1ccnn1)CC2 — Kd (KAI2 (Arabidopsis thaliana, UniProt Q9SZU7, F157A); ITC; F157A mutant, mean): 323 µM
CC(=O)N([O-])CCCCCNC(=O)CCC(=O)N([O-])CCCCCNC(=O)CCC(=O)N([O-])CCCCCN.[89Zr+4] — intact complex (radio-TLC; aqueous buffer; 7 d, pH 8.5, 37 °C, 89Zr-labelled complex, together with: DTPA 1000-fold excess): 77.3 ± 1.4%
CNS(=O)(=O)Nc1nccc(Cc2c(C)c3ccc(Oc4ncccc4F)cc3oc2=O)c1F — IC50 (NCI-H1819; cell viability; 7 days): > 1 µM
CNC(=O)C1CCCN(C(=O)C2CC3CCC2N3C(=O)[C@@H]2C[C@@H](O)CN2C(=O)NCc2cccc(Cl)c2F)C1 (mixture of isomers) — dextrorphan formation (Cytochrome P450 2D6 (CYP2D6, Homo sapiens, UniProt P10635); enzyme activity, inhibitor, time-dependent inhibition; 50 µM, preincubated with NADPH): 143 ng/mL
Cc1ncsc1-c1ccc(C(C)NC(=O)C2CC(O)CN2C(=O)C(NC(=O)CCCCCCCCCCN2CCCC(Nc3ncc(Cl)c(Nc4ccccc4S(=O)(=O)C(C)C)n3)C2)C(C)(C)C)cc1 (centres unmarked) — log2 fold change (22Rv1; RNA-seq, measured: SOWAHC mRNA; concentration not given; baseline: DMSO): -1.17
O=C(Nc1cnccc1-c1ccc([18F])cc1)c1ccnc(NC(=O)C2CC2)c1 — SUV (FVB/NJ mice (both sexes), thalamus; intravenous, dose not given, 120 min): 0.05
Cc1cc(-c2ccc(C(=O)[C@@H]3CCCC[C@H]3C(=O)Nc3cnn4c3C(=O)NCC4)cc2)[nH]n1 — cumulative recovery of radioactivity (human, urine; oral, 200 mg, 0-144 h; baseline: dose): 5.88%
CC(C)C[C@H](NC(=O)[C@H](CCCN)NC(=O)CNC(=O)[C@@H](NC(=O)[C@H](C)NC(=O)[C@@H]1CSCSC[C@H](NC(=O)CC[C@H](N)C(=O)O)C(=O)N[C@@H](CC(N)=O)C(=O)N[C@@H]([C@@H](C)O)C(=O)N[C@@H](C)C(=O)N[C@@H]([C@@H](C)O)C(=O)N1)[C@@H](C)O)C(=O)N[C@@H](C)C(=O)N[C@@H](CCC(=O)O)C(=O)N[C@@](C)(Cc1ccccc1)C(=O)N[C@@H](CC(C)C)C(=O)N[C@H](C(=O)N[C@@H](CCCNC(=N)N)C(=O)N[C@@H](CO)C(=O)N[C@@H](CO)C(=O)N[C@@H](CC(N)=O)C(=O)N(C)[C@@H](CC(N)=O)C(=O)N[C@@H](Cc1ccccc1)C(=O)NCC(=O)N1CCC[C@H]1C(=O)N[C@@H](CCCCNC(=O)CC[C@H](NC(=O)CC[C@H](NC(=O)CCCCCCCCCCCCCCCCCCC(=O)O)C(=O)O)C(=O)O)C(=O)N[C@@H](CC(C)C)C(=O)N1CCC[C@H]1C(=O)N1CCC[C@H]1C(=O)N[C@H](C(=O)N[C@@H](CCC(=O)O)C(=O)N[C@H](C(=O)NCC(=O)N[C@@H](CO)C(=O)N[C@@H](CC(N)=O)C(=O)N[C@H](C(=O)N[C@@H](Cc1ccc(O)cc1)C(N)=O)[C@@H](C)O)C(C)C)[C@@H](C)O)C(C)C — AUC(0-tlast) (healthy human, plasma; subcutaneous, 0.12 mg single dose, geometric LS mean): 5810 ng·h/mL

A few entries again:
CCN(CC)c1ccc2c(c1)O[B-]1(c3ccccc3)OC(=O)C(c3ccccc3)=N[N+]1=C2C (centres unmarked) — molar absorption coefficient (toluene): 50000 M⁻¹ cm⁻¹
C=C[C@]1(C)C[C@@H](OC(=O)CSc2ccc(NC(=O)c3ccco3)cc2)[C@]2(C)[C@H](C)CC[C@]3(CCC(=O)[C@H]32)[C@@H](C)[C@@H]1O — plasma concentration (Mycoplasma gallisepticum-infected chickens, plasma; intramuscular, 5 mg/kg, 3 h): 176 ng/mL and 151 ng/mL and 172 ng/mL and 128 ng/mL and 129 ng/mL and 159 ng/mL and 170 ng/mL and 140 ng/mL
CCCC[C@H](OC(C)=O)c1ccccc1C(=O)O — clearance (beagle dogs, both sexes, whole blood; intravenous, 5 mg/kg single dose): 16.8 ± 1.77 mL/min/kg
